# Published values gathered from unrelated publications.
# Every numbered part comes from another study and shows a few of its results, in no order. Substitutions count along the parent as printed.

# Study 1
# Target: ABI1, truncated, D143A, DHFR fusion (Arabidopsis thaliana)
# Method: DHFR PCA, deep sequencing
# Matrix: yeast
# Notes: methotrexate growth selection, single substitutions
# Added: (+)-ABA 0.0091 µM
# Relative to: wild-type fitted maximum
# Direction: higher = stronger binding
# Starting sequence: PYL1, truncated, DHFR fusion (Arabidopsis thaliana); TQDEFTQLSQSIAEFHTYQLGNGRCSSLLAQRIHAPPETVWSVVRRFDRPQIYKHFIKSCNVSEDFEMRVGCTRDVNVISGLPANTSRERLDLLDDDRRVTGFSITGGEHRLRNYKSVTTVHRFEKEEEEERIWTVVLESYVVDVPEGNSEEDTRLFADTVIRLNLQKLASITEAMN
Variant,relative binding score
N22W,25.9%
L28W,-3.71%
K116L,0.485%
I52G,-2.02%
E67R,9.94%
T6M,46.1%
C60G,0.478%
V137R,-0.887%
D159A,-0.301%
V43E,-3.41%
G81R,-0.461%
L156V,7.22%
V44K,-2.2%
E4I,25.8%

# Study 2
# Target: RNA binding protein fox-1 homolog 2, RRM domain, GST-SBP tag (RBFOX2, Homo sapiens, UniProt O43251-10, residues 100-194)
# Method: RNA Bind-n-Seq
# Form: RNA
# Matrix: in vitro
# Tested at: 365 nM
# Notes: natural RNA segment, single round, ends assumed
# Relative to: no-protein control
# Direction: higher = stronger binding
# Residues (chain): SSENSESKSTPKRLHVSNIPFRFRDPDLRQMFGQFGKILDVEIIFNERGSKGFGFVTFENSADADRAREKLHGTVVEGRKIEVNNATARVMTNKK
Strand,RBNS enrichment (R)
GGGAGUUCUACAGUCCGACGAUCGAUAAAACCAAAGAGACAACCGUUGUGGAUCCACUGGUGAAAGUAGAGCUCUAUGGUGUUCCUGAAGACACAAAGGAGCAAGAGACCAGCCAUGUGGAGAACAAUGGUAUUGGAAUUCUCGGGUGCCAA,0.423
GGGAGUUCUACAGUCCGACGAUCAAAAACCGAAUAACCAAGCAGCGCGUCUGCUCUUUCCCUGAUUCGCAUGUGACUGUGAUGCUUUCCAGUCACAUUCAUCACGCACUCAGACCUGUGGCCUGGUGGGACCAUGGAAUUCUCGGGUGCCAA,0.383
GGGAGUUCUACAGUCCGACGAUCGCUAUUUAGGGUAGGCUUAAAGUGCUGGGUGGUGAUUUGAGUUCAAACAAUAAAAAAUUGUAUUUUUUCAAUAUUGUAUAAACAAUAGUGUUCUAAUUACCUUAAAAAAAUGGAAUUCUCGGGUGCCAA,0.712
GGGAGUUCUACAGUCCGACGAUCUUUGAGAAGUGAAUUAACCUUACAUCCCUUUGUUCAGAUACCUUAAAAGUUACUUUAUUUAAAAGCAUUUAUUAAUCUUAGUCUGAAAUCAAAAUAUAGAUUAAUUGGCUUGGAAUUCUCGGGUGCCAA,0.35
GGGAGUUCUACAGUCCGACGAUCACUGCUGCCACCUCUCUGGCCAAUGGCCCUUUCACUGGCCUGGUGACUGGAAUGUGGGCAGCGCCCACACAGGCUCUGGCCCAUGGCUUCCUACUGGCAGCUCCAGGCACUGGAAUUCUCGGGUGCCAA,0.264
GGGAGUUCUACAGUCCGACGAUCAUUUCAGUCUUAAAGUGUGACUUGUAAGGAGCCAAGCUGUACAGUUUAGUUCAUGAUGGCAGCUCUCUGCCUCUUCAGAAAGUAUAUAUCAUAGUGGUAAAUAAUGUAGAUGGAAUUCUCGGGUGCCAA,0.459
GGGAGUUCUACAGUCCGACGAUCCUGAGAAACUCCAGCCUCAAGAAUAUAAUCUCAUUCUAACCUUCACCUCUUCAACUUCUUCUGUGGCUUCUGUGUUACAUUGUUGCCCUGGUUCUCAUAUAUGCUGUGUAUGGAAUUCUCGGGUGCCAA,1.87
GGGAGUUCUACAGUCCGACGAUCCCACGUGUAUAACAGCUCUGCUGGACACCCAAGAAAGCCAUGGGAACGCCAACUGGAAAGGUCCCCUUCCCCAGGGGAGCCUGCGAAGGAGAGGUUCUGUAGAAUCCAAGUGGAAUUCUCGGGUGCCAA,0.389

# Study 3
# Target: CCNA2, cyclin fold, Cln2 fusion (human)
# Method: yeast growth competition, sequencing
# Matrix: yeast
# Notes: strong parent motif
# Relative to: not given
# Direction: higher = stronger binding
# Starting sequence: PKMYT1 docking peptide (human); SFEPRNLLSLFED
Variant,normalised enrichment score
S1V,3.17
R5F,-0.244
D13E,2.72
E3G,2.25
L7F,-1.09
S9T,2.67
E12A,1.83
L8T,1.51
L8F,1.18
S1G,4.06
E12D,2.55
S1Q,3.42
S9A,2.72
P4T,-0.748

# Study 4
# Target: Centromere-binding protein 1, full length, N-terminal tag (CBF1, Saccharomyces cerevisiae, UniProt P17106, residues 1-351)
# UniProt P17106, sequence (whole entry, looked up): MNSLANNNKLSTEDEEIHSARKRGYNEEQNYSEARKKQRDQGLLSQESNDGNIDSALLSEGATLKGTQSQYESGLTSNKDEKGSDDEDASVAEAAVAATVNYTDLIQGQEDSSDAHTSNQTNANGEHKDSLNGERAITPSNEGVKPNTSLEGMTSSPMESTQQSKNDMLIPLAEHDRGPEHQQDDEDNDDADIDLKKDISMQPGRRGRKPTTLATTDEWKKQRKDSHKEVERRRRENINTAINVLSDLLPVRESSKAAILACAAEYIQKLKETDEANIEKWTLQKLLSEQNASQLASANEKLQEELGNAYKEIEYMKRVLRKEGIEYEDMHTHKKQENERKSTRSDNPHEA
# Method: protein-binding microarray
# Form: double-stranded DNA, one strand shown
# Matrix: in vitro
# Tested at: 0.8 µM
# Notes: whole 60-bp probe, no competitor
# Direction: higher = stronger binding
Strand,fluorescence intensity [a.u.]
GAAAAAATGATACTACATGTGCATGAAGTATTATAGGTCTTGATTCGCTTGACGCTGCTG,608
CTAAATAGTAATTGTCACGCAATATCTTGTGGATTCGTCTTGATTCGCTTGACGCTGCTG,609
GAAGGATAAATGACGTGGGTGATCCACTGTCAATAGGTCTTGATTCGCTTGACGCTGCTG,507
CTACTGTTTTAGAATCGCATCAGGTGTTTACCATTCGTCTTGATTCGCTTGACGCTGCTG,1600
GAAAGGTATAGGCGTGATGCCATGGGAGGGGCATAGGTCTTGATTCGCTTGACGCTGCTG,667
CTAATTCAAATACCCCCCGTGAAGTATCAGATGTTCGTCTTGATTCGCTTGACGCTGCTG,579
CTAACAACTTTATGTTTCACGTTATGAAAGAATTTCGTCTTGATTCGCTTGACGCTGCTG,673
GAAGGGGAACTGTACAACACGTTCAACCAAAACTAGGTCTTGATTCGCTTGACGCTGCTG,554
GAAAACCTGGTGTTTAACATCACTAATATGATCTAGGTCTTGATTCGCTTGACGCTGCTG,515
CTATTGATAATTTGGCATGTGCGATCTCTTCGATTCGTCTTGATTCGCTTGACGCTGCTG,685
GAAGGGGACCGCTGTCACCTTGCCTGGGAAAGATAGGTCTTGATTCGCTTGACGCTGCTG,555
CTAAGTTAGTTCTGCCACGCCATTTTAAGTCCATTCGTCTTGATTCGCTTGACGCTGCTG,559
GAACTATAAGTGTATCACACCATTATTAATGAGTAGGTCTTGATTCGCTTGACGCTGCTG,597
CTAGGAGAGGAAAAGGACGTGCATATATTCTTTTTCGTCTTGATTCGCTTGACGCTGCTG,536
CTATTTTCAATGTTATACGTGATTTTATCTTTGTTCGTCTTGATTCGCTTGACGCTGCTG,635

# Some of these lines once more (study 1):
Variant,relative binding score
C60G,0.478%
K116L,0.485%
E67R,9.94%
E4I,25.8%
